Published values pooled from the literature.
Each line is one published result; not all experiments were run side by side. Numbers after ± are the reported error.
Slc6a3: Sodium-dependent dopamine transporter (Slc6a3, Rattus norvegicus, UniProt P23977)
Sequence of UniProt P23977 (whole entry, looked up): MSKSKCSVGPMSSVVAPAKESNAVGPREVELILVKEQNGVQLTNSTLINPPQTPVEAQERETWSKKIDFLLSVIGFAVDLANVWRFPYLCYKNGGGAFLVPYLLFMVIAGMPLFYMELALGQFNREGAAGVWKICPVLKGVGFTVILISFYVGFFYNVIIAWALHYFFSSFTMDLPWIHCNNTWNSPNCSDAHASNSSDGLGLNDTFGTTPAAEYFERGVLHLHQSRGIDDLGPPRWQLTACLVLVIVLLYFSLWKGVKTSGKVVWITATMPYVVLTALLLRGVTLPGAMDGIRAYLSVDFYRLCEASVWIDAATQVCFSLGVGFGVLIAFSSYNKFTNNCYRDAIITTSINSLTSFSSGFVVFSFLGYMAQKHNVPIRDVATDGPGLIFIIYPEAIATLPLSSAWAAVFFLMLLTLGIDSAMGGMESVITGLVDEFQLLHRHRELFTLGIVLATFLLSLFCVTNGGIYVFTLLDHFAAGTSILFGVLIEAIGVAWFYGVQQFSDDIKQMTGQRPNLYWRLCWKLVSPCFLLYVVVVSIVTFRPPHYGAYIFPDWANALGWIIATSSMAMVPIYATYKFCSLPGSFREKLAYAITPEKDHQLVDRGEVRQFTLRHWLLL
HRH3: Histamine H3 receptor (HRH3, Homo sapiens, UniProt Q9Y5N1)
Sequence of UniProt Q9Y5N1 (whole entry, looked up): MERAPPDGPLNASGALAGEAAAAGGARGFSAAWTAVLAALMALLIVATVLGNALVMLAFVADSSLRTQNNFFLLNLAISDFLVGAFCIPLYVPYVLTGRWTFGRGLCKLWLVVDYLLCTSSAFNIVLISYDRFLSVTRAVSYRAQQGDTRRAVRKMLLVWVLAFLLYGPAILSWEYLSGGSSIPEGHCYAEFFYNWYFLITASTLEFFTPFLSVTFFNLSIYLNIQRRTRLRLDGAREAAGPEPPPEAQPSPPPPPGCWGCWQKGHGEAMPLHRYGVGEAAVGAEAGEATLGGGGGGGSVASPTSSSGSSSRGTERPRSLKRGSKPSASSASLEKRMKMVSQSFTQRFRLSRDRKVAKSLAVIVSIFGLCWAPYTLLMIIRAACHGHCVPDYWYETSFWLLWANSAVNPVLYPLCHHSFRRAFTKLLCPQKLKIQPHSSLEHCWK
ADRA2C: Alpha-2C adrenergic receptor (ADRA2C, Homo sapiens, UniProt P18825)
Sequence of UniProt P62813 (whole entry, looked up): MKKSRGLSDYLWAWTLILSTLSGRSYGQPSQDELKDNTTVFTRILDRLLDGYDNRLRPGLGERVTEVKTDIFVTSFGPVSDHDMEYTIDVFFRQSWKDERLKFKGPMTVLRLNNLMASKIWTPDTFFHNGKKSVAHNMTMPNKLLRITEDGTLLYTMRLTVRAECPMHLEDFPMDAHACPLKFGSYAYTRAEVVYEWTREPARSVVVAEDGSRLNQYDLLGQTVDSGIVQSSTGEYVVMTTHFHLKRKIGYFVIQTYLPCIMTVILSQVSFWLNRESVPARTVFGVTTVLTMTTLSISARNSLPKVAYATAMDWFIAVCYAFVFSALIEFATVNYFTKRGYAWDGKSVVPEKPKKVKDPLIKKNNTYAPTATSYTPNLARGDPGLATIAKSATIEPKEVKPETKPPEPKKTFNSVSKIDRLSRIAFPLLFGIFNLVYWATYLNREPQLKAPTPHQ
Sequence of UniProt P18508 (whole entry, looked up): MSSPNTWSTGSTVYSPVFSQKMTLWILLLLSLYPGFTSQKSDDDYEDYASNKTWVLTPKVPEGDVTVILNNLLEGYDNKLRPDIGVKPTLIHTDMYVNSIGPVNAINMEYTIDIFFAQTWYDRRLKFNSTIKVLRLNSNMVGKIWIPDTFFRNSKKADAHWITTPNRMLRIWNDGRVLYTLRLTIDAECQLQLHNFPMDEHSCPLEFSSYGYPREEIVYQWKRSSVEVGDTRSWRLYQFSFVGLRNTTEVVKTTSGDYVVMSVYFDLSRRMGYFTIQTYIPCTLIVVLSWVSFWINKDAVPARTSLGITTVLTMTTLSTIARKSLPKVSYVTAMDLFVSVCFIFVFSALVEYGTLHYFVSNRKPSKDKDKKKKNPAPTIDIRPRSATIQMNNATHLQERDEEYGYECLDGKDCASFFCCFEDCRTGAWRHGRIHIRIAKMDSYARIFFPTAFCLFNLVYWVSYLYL
Sequence of UniProt P18825 (whole entry, looked up): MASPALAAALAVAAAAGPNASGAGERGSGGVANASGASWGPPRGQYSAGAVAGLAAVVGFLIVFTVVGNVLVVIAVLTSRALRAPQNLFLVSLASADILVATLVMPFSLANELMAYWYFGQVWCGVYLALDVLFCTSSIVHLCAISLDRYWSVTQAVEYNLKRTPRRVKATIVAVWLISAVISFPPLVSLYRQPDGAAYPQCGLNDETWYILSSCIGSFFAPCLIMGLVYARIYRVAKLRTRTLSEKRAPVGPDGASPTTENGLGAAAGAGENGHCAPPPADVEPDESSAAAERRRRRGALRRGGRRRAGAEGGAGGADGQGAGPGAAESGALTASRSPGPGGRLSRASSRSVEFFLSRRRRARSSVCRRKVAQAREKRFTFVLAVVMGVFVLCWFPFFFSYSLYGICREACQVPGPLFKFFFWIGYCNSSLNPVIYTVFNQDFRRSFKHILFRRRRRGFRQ
Sequence of UniProt O50406 (whole entry, looked up): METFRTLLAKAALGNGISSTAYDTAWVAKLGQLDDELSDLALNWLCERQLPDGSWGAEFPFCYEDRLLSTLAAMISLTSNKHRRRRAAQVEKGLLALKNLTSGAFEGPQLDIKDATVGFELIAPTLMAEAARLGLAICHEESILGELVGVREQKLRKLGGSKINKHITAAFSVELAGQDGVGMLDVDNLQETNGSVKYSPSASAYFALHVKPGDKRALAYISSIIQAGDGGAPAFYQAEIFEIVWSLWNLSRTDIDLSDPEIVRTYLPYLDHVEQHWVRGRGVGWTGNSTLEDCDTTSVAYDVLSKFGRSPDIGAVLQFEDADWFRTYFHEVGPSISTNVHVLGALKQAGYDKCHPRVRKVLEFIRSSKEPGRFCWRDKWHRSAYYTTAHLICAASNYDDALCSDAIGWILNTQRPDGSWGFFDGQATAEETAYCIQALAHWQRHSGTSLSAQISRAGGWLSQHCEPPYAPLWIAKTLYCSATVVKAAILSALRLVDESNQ
Sequence of UniProt P9WJM9 (whole entry, looked up): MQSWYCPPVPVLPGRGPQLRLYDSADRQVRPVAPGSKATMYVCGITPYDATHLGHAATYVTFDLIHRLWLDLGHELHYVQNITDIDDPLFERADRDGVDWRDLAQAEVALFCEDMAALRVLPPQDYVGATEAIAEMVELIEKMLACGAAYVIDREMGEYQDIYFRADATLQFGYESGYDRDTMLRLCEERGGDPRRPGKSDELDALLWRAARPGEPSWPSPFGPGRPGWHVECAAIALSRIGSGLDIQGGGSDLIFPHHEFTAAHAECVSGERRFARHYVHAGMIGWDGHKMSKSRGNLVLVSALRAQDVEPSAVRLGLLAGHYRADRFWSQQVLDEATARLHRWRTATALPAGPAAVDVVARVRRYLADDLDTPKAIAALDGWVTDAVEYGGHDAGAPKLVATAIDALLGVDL
Sequence of UniProt P14060 (whole entry, unmodified, looked up): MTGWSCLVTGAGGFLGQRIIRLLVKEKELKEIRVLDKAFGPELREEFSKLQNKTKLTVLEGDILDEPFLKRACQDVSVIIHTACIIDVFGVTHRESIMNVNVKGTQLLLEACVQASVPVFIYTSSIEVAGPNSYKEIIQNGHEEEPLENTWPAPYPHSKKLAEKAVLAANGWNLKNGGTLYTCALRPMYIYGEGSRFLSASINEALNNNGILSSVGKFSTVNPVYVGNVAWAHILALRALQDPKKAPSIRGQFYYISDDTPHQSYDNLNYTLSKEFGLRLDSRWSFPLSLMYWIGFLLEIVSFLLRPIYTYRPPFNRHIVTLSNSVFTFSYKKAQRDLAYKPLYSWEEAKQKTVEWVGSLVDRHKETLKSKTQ
Sequence of UniProt P63079 (whole entry, looked up): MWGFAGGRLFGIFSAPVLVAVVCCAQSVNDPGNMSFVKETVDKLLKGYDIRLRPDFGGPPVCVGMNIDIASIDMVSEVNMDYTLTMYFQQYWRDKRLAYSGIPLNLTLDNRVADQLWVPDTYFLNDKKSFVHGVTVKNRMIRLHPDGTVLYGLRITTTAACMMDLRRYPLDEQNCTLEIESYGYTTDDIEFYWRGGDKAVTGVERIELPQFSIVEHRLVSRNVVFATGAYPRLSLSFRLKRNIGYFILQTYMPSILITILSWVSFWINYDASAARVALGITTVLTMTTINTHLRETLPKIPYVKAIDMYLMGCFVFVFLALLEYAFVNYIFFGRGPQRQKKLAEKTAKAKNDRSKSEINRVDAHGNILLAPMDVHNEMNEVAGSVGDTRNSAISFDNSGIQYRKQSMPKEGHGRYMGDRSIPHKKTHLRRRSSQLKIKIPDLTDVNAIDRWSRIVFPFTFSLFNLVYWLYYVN
Sequence of UniProt P21554 (whole entry, looked up): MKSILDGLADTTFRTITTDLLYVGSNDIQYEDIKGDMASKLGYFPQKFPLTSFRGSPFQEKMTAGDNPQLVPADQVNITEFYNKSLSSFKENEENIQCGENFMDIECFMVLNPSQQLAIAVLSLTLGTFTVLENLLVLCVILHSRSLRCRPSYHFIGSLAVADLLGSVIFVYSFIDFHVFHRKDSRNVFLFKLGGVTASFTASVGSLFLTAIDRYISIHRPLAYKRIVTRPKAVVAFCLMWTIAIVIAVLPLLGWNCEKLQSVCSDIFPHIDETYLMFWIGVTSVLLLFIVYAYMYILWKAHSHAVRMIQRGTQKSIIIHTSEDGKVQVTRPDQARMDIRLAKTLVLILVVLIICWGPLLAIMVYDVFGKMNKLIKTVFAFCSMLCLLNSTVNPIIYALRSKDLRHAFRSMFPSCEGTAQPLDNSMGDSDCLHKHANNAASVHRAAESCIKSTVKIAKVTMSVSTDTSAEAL
Sequence of UniProt P46003 (1-109, unmodified, looked up): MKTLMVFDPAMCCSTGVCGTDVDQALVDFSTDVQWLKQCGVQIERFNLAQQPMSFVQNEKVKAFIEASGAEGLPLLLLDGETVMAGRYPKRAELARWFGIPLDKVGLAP

`C[C@]12CCC(=O)CC1=CC[C@@H]1[C@@H]2CC[C@]2(C)C(=O)CC[C@@H]12` has a Km of 27.9 µM (3 beta-hydroxysteroid dehydrogenase/Delta 5-->4-isomerase type 1 (HSD3B1, Homo sapiens, UniProt P14060, H157Y); substrate).
With `CC(N)Cc1ccc2ccoc2c1` (stereo not shown) the selectivity ratio was 1.4 (Slc6a3; [3H]MPP+ release, releaser; rat brain synaptosomes; baseline: DAT over NET, higher = more DAT-selective).
`CN(CC(N)=O)C(=O)C(C)(C)NC(=O)c1nn(Cc2ccc(F)cc2)c2ccccc12` has an Emax of 103 ± 2% (Cannabinoid receptor 1 (CNR1, Homo sapiens, UniProt P21554); calcium mobilization, agonist; CHO-K1 expressing Gαq16; baseline: CP55,940 maximum).
`NC(=O)C[S+]([O-])C(c1ccccc1)c1ccccc1` (stereo not shown) — result for Kb: “inactive” (HRH3; antagonist; membranes expressing H3 receptor; together with: (R)-α-methylhistamine 1 µM).
`CC1N=C(c2ccccc2F)c2cc(NC(C)(C)C)ccc2NC1=O` (stereo not shown) gave an inhibition of 35% (ADRA2C; ligand displacement, radioligand; 10 µM).
The Km of `N[C@H]1[C@@H](O[C@@H]2[C@H](O)[C@H](O)[C@@H](O)[C@H](O)[C@H]2O)O[C@H](CO)[C@@H](O)[C@@H]1O` is reported as 710 ± 170 µM (L-cysteine:1D-myo-inositol 2-amino-2-deoxy-alpha-D-glucopyranoside ligase (Mycobacterium tuberculosis, UniProt P9WJM9); substrate; together with: other substrates saturating).
For `CNC(C)Cc1ccc2ccoc2c1` (stereo not shown), the selectivity ratio was 1.65 (Slc6a3; [3H]MPP+ release, releaser; rat brain synaptosomes; baseline: DAT over SERT, higher = more DAT-selective).
`Nc1ncnc2c1ncn2[C@@H]1O[C@H](COP(=O)(O)OP(=O)(O)OP(O)(O)=S)[C@@H](O)[C@H]1O` has a fold change of 5 fold (fadD23 (Mycobacterium tuberculosis, UniProt P9WQ47); ATP probe labelling, competitor, chemoproteomics; Mycobacterium tuberculosis, lysate; 500 µM; baseline: untreated).
For `CC(N)Cc1ccc2occc2c1` (stereo not shown), the selectivity ratio was 0.67 (Slc6a3; [3H]MPP+ release, releaser; rat brain synaptosomes; baseline: DAT over NET, higher = more DAT-selective).
For `CCN(C(C)=O)c1cccc(-c2ccnc3c(C#N)cnn23)c1`, the potentiation score was greater than 0.5 (GABA-A receptor; alpha-1/beta-2/gamma-2 (Rattus norvegicus, UniProt P18508+P62813+P63138); GABA-evoked current, positive modulator, automated patch clamp; HEK293; 10 µM, together with: GABA, EC30; baseline: 0.4 µM GABA response, direction not given).
For `NC(=O)OC[C@H](N)Cc1ccccc1`, Kb read “inactive” (HRH3; antagonist; membranes expressing H3 receptor; together with: (R)-α-methylhistamine 1 µM).
The Hill coefficient of `COC[C@@H](NC(C)=O)C(=O)NCc1ccccc1` is reported as 0.72 (Sodium channel protein type 5 subunit alpha (SCN5A, Homo sapiens, UniProt Q14524); sodium current, inhibitor, IonWorks Quattro).
`CC1N=C(c2ccccc2F)c2cc(NC3CCCCC3)ccc2NC1=O` (stereo not shown) gave an inhibition of 80% (ADRA2C; ligand displacement, radioligand; 10 µM).
`CNC(C)C(=O)c1ccc(C)cc1` (stereo not shown) gave a selectivity ratio of 2.4 (Slc6a3; substrate release; rat brain synaptosomes; baseline: SERT EC50 over target EC50).
For `O=[As][O-].[Na+]`, the koff was 0.0004 ± 0.0002 s⁻¹ (Arsenical resistance operon trans-acting repressor ArsD, residues 1-109 (arsD, Escherichia coli, UniProt P46003, V17W/W35Y/W97Y); fluorescence quenching; no added thiols).
The selectivity ratio of `CNC(C)Cc1ccc2c(c1)OCO2` (racemic) is reported as 0.71 (Slc6a3; [3H]MPP+ release, releaser; rat brain synaptosomes; baseline: DAT over SERT, higher = more DAT-selective).
For `N[C@@H](Cc1c[nH]c2ccc(O)cc12)C(=O)O`, the Km was 2660 ± 197 µM (TMO-IaaH coupled enzymes, Burkholderia pyrrocinia; substrate, LC-MS, item: 5-HIAA).
`C[C@]12CC[C@H]3[C@@H](CCC4=CC(=O)CC[C@@]43C)[C@@H]1CC[C@@H]2O` has a Km of 44.1 µM (CYP3A1/2, rat; substrate, substrate depletion, LC-MS/MS; rat liver microsomes; 30 min, pH 7.4, 37 °C, together with: NADPH 1 mM, probe cocktail).
The IC50 of `CC(=CCCC(C)=CCSP(=O)(O)OP(=O)(O)O)CCC=C(C)CCCN(C)C` is reported as 0.1 nM (Type B diterpene cyclase (Mycobacterium tuberculosis, UniProt O50406); enzyme activity, inhibitor, item: HPP from GGPP).
The efficacy of `CCCC(C)(COC(N)=O)COC(=O)NC(C)C` (stereo not shown) is reported as 200 ± 9.5% (Gamma-aminobutyric acid receptor subunit alpha-1/beta-3/gamma-2 (Rattus norvegicus, UniProt P18508+P62813+P63079); ion current, positive modulator, whole-cell patch clamp; HEK293; together with: GABA EC20; baseline: GABA EC20 response).
`CNC(C)Cc1ccc2occc2c1` (stereo not shown) has a selectivity ratio of 1.56 (Slc6a3; [3H]MPP+ release, releaser; rat brain synaptosomes; baseline: DAT over SERT, higher = more DAT-selective).
For `C[n+]1ccc(-c2ccccc2)cc1`, the Vmax was 0.23 ± 0.02 nmol/mg protein/min (Equilibrative nucleoside transporter 4 (SLC29A4, Homo sapiens, UniProt Q7RTT9, I89M); substrate, radiolabelled uptake; MDCK expressing YFP-tagged I89M SLC29A4; 1 min, 37 °C, vector background subtracted).

Some of these lines once more:
The efficacy of `CCCC(C)(COC(N)=O)COC(=O)NC(C)C` (stereo not shown) is reported as 200 ± 9.5% (Gamma-aminobutyric acid receptor subunit alpha-1/beta-3/gamma-2 (Rattus norvegicus, UniProt P18508+P62813+P63079); ion current, positive modulator, whole-cell patch clamp; HEK293; together with: GABA EC20; baseline: GABA EC20 response).
`CNC(C)Cc1ccc2occc2c1` (stereo not shown) has a selectivity ratio of 1.56 (Slc6a3; [3H]MPP+ release, releaser; rat brain synaptosomes; baseline: DAT over SERT, higher = more DAT-selective).
